Experimental data of several laboratories.
Compare with care: the assays were run in different laboratories. “And” joins repeats or separate records; there may be more than shown.
HTR2C: 5-hydroxytryptamine receptor 2C (HTR2C, Homo sapiens, UniProt P28335)
OPRD1: Delta-type opioid receptor (OPRD1, Homo sapiens, UniProt P41143)
SLC6A4: Sodium-dependent serotonin transporter (SLC6A4, Homo sapiens, UniProt P31645)

| Structure (SMILES) | target | assay | system | setting | Ki |
| --- | --- | --- | --- | --- | --- |
| COc1cc(CC(C)N)c(OC)cc1I (racemic) | Htr2a (Mus musculus, UniProt P35363) | [3H]ketanserin competition binding | mouse striatum membranes | with: quinpirole 10 µM and raclopride | 0.27 µM |
| NC(=O)c1cccnc1 | Halyomorpha halys Nan-Iav | – | – | – | 108 µM |
| CCc1cc(OC)c(CCNCc2ccccc2OC)cc1OC | HTR2C | ligand displacement, radioligand | – | – | 0.000311 µM |
| O=C(N[C@@H]1CC[C@@]2(O)[C@H]3Cc4cccc5c4[C@@]2(CCN3CC2CC2)[C@H]1O5)c1ccnc(Cl)c1 | OPRD1 | ligand displacement, radioligand | – | cell membranes | 2.12 µM |
| CCCC(NC)C(=O)c1ccc(Cl)cc1 (stereo not drawn) | SLC6A4 | ligand displacement, radioligand | – | cell membranes | 3.85 µM |
| N#Cc1cc(C(=O)N[C@@H]2CC[C@@]3(O)[C@H]4Cc5cccc6c5[C@@]3(CCN4CC3CC3)[C@H]2O6)ccn1 | OPRD1 | ligand displacement, radioligand | – | cell membranes | 3.38 µM |
| CCC(C(=O)c1ccc2c(c1)OCO2)N(C)C (stereo not drawn) | SLC6A4 | ligand displacement, radioligand | – | cell membranes | > 10 µM |
| Cc1cc(C(=O)N[C@@H]2CC[C@@]3(O)[C@H]4Cc5cccc6c5[C@@]3(CCN4CC3CC3)[C@H]2O6)ccn1 | Oprk1 (Mus musculus, UniProt P33534) | ligand displacement, radioligand | – | cell membranes | 0.0961 µM |
| CCC(=O)Nc1c(OC[C@H](O)[C@H](O)[C@H](O)CO)[nH]c(=O)[nH]c1=O | ribH (Mycobacterium tuberculosis, UniProt P9WHE9) | inhibitor | – | pH 7.0, with: substrate 1 varied, other substrate 2 constant | > 1000 µM |
| O=C(N[C@@H]1CC[C@@]2(O)[C@H]3Cc4cccc5c4[C@@]2(CCN3CC2CC2)[C@H]1O5)c1ccnc(Br)c1 | OPRD1 | ligand displacement, radioligand | – | cell membranes | 2.09 µM |
| COc1cc([N+](=O)[O-])c(OC)cc1CCNCc1ccccc1OC | HTR2A (Homo sapiens, UniProt P28223) | ligand displacement, radioligand | – | – | 0.000144 µM |
| Fc1ncccc1OC[C@@H]1C=CCN1 | Neuronal acetylcholine receptor; alpha4/beta2 (Rattus norvegicus, UniProt P09483+P12390) | radioligand binding | rat brain cortex | with: [3H]epibatidine | 0.00107 µM |
| COc1cc(CCNCc2ccccc2O)c(OC)cc1I | HTR2C | ligand displacement, radioligand | – | – | 0.00103 µM and ~0.001 µM |
| COc1cc(C(=O)N[C@@H]2CC[C@@]3(O)[C@H]4Cc5cccc6c5[C@@]3(CCN4CC3CC3)[C@H]2O6)ccn1 | OPRD1 | ligand displacement, radioligand | – | cell membranes | 5.9 µM |
| CC(C)=CCN1CCC2(C)c3cc(O)ccc3CC1C2C (stereo not drawn) | Pde10a (Rattus norvegicus, UniProt Q9QYJ6) | ligand displacement, radioligand | – | cell membranes | > 1 µM |

A few entries again:
| Structure (SMILES) | target | assay | system | setting | Ki |
| --- | --- | --- | --- | --- | --- |
| CCC(=O)Nc1c(OC[C@H](O)[C@H](O)[C@H](O)CO)[nH]c(=O)[nH]c1=O | ribH (Mycobacterium tuberculosis, UniProt P9WHE9) | inhibitor | – | pH 7.0, with: substrate 1 varied, other substrate 2 constant | > 1000 µM |
